Measured values from different studies.
Numbers after ± are the reported error.
ribH: 6,7-dimethyl-8-ribityllumazine synthase (ribH, Mycobacterium tuberculosis, UniProt P9WHE9)
Sequence of UniProt P9WHE9 (whole entry, looked up): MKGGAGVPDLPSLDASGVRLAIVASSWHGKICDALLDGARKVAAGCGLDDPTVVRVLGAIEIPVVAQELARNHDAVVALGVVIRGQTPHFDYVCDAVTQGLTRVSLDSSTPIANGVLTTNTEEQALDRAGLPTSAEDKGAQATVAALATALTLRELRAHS
B1: UGT1A9 (Homo sapiens, UniProt O60656); chain GKLLVVPMDGSHWFTMRSVVEKLILRGHEVVVVMPEVSWQLGRSLNCTVKTYSTSYTLEDLDREFKAFAHAQWKAQVRSIYSLLMGSYNDIFDLFFSNCRSLFKDKKLVEYLKESSFDAVFLDPFDNCGLIVAKYFSLPSVVFARGILCHYLEEGAQCPAPLSYVPRILLGFSDAMTFKERVRNHIMHLEEHLLCHRFFKNALEIASEILQTPVTEYDLYSHTSIWLLRTDFVLDYPKPVMPNMIFIGGINCHQGKPLPMEFEAYINASGEHGIVVFSLGSMVSEIPEKKAMAIADALGKIPQTVLWRYTGTRPSNLANNTILVKWLPQNDLLGHPMTRAFITHAGSHGVYESICNGVPMVMMPLFGDQMDNAKRMETKGAGVTLNVLEMTSEDLENALKAVINDKSYKENIMRLSSLHKDRPVEPLDLAVFWVEFVMRHKGAPHLRPAAHDLTWYQYHSLDVIGFLLAVVLTVAFITFKCCAYGYRKCLGKKGRVKKAHKSKTH
B2: DNA ligase 1 (human, 233–919); sequence looked up; chain TPRKPAVKKEVKEEEPGAPGKEGAAEGPLDPSGYNPAKNNYHPVEDACWKPGQKVPYLAVARTFEKIEEVSARLRMVETLSNLLRSVVALSPPDLLPVLYLSLNHLGPPQQGLELGVGDGVLLKAVAQATGRQLESVRAEAAEKGDVGLVAENSRSTQRLMLPPPPLTASGVFSKFRDIARLTGSASTAKKIDIIKGLFVACRHSEARFIARSLSGRLRLGLAEQSVLAALSQAVSLTPPGQEFPPAMVDAGKGKTAEARKTWLEEQGMILKQTFCEVPDLDRIIPVLLEHGLERLPEHCKLSPGIPLKPMLAHPTRGISEVLKRFEEAAFTCEYKYDGQRAQIHALEGGEVKIFSRNQEDNTGKYPDIISRIPKIKLPSVTSFILDTEAVAWDREKKQIQPFQVLTTRKRKEVDASEIQVQVCLYAFDLIYLNGESLVREPLSRRRQLLRENFVETEGEFVFATSLDTKDIEQIAEFLEQSVKDSCEGLMVKTLDVDATYEIAKRSHNWLKLKKDYLDGVGDTLDLVVIGAYLGRGKRAGRYGGFLLASYDEDSEELQAICKLGTGFSDEELEEHHQSLKALVLPSPRPYVRIDGAVIPDHWLDPSAVWEVKCADLSLSPIYPAARGLVDSDKGISLRFPRFIRVREDKQPEQATTSAQVACLYRKQSQIQNQQGEDSGSDPEDTY
B3: α-TTP F169D; sequence looked up; chain MAEARSQPSAGPQLNALPDHSPLLQPGLAALRRRAREAGVPLAPLPLTDSFLLRFLRARDFDLDLAWRLLKNYYKWRAECPEISADLHPRSIIGLLKAGYHGVLRSRDPTGSKVLIYRIAHWDPKVFTAYDVFRVSLITSELIVQEVETQRNGIKAIFDLEGWQFSHADQITPSVAKKIAAVLTDSFPLKVRGIHLINEPVIFHAVFSMIKPFLTEKIKERIHMHGNNYKQSLLQHFPDILPLEYGGEEFSMEDICQEWTNFIMKSEDYLSSISESIQ
B4: α-TTP F165A; sequence looked up; chain MAEARSQPSAGPQLNALPDHSPLLQPGLAALRRRAREAGVPLAPLPLTDSFLLRFLRARDFDLDLAWRLLKNYYKWRAECPEISADLHPRSIIGLLKAGYHGVLRSRDPTGSKVLIYRIAHWDPKVFTAYDVFRVSLITSELIVQEVETQRNGIKAIFDLEGWQASHAFQITPSVAKKIAAVLTDSFPLKVRGIHLINEPVIFHAVFSMIKPFLTEKIKERIHMHGNNYKQSLLQHFPDILPLEYGGEEFSMEDICQEWTNFIMKSEDYLSSISESIQ
B5: α-TTP M209D; sequence looked up; chain MAEARSQPSAGPQLNALPDHSPLLQPGLAALRRRAREAGVPLAPLPLTDSFLLRFLRARDFDLDLAWRLLKNYYKWRAECPEISADLHPRSIIGLLKAGYHGVLRSRDPTGSKVLIYRIAHWDPKVFTAYDVFRVSLITSELIVQEVETQRNGIKAIFDLEGWQFSHAFQITPSVAKKIAAVLTDSFPLKVRGIHLINEPVIFHAVFSDIKPFLTEKIKERIHMHGNNYKQSLLQHFPDILPLEYGGEEFSMEDICQEWTNFIMKSEDYLSSISESIQ
Sequence of UniProt P56450 (whole entry, looked up): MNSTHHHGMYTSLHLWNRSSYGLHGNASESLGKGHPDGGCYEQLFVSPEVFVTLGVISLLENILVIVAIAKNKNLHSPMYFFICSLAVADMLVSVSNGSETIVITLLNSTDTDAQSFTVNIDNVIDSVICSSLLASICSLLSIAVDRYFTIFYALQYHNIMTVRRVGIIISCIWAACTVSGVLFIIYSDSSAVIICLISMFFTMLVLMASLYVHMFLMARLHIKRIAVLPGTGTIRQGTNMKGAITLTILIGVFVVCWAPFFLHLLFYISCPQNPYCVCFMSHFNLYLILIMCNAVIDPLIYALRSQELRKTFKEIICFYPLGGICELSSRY
Sequence of UniProt P41143 (whole entry, looked up): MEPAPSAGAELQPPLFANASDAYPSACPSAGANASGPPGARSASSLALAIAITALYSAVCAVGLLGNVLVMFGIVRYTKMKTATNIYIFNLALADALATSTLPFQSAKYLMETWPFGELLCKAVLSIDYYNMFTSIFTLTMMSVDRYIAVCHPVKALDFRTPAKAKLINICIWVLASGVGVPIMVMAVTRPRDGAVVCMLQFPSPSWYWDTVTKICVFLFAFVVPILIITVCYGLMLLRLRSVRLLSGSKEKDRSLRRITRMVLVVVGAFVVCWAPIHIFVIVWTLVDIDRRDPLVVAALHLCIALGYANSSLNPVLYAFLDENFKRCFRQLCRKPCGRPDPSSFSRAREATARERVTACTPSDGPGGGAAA

Substance	tested on	assay	system	setting	quantity	value
B1 (UGT1A9)	O=c1cc(-c2ccccc2)oc2cc(O)ccc12	steady-state kinetics		pH 7.4, 37 °C	Vmax/Km	1360 µL/min/mg
O=c1[nH]c(/C=C/C2C=Nc3ccccc32)c([N+](=O)[O-])c(=O)[nH]1 (stereo not drawn)	ribH	enzyme activity, inhibitor		pH 7.0	Ki	70 ± 31 µM
B2 (DNA ligase 1)		DNA binding, fluorescence polarization	nicked dsDNA probe	pH 7.4, 0.1 M NaCl, added: 15 nM fluorescein-labelled DNA probe	Kd	7.7 µM
vimentin		binding, SPR (Biacore)	immobilized peptide	rabbit mAb mixture analyte	Kd	0.000306 µM
N=C(N)NCCC[C@@H]1NC(=O)[C@H](CCCNC(=N)N)NC(=O)[C@H](CCCNC(=N)N)NC(=O)[C@H](Cc2ccc3ccccc3c2)NC(=O)[C@H](Cc2ccccc2)NC(=O)[C@H](CCC(N)=O)NC(=O)[C@H](CCCNC(=N)N)NC1=O		lipid binding, fluorescence polarization	small unilamellar vesicles PC/PE/PI/BMP	2 h, room temperature, EC50 as lipid concentration	EC50	166 ± 12 µM
B3 (α-TTP F169D)		binding, dual polarization interferometry	immobilized phospholipid bilayer	20 °C	Kd	5.85 ± 0.54 µM
Nc1ncnc2c1ncn2[C@@H]1O[C@H](COP(=O)(O)OP(=O)(O)OP(=O)(O)OP(=O)(O)OC[C@H]2O[C@@H](n3cnc4c(N)ncnc43)[C@H](O)[C@@H]2O)[C@@H](O)[C@H]1O	HEK293T	PGC-1α/ERRα reporter gene, agonist, qHTS luciferase			EC50	13.3 µM
AAEDWCKKGDT			peptide, human polyclonal IgM RF SOR	concentration not given, 5 µg/mL mAb II-481 coated, added: RF at 50% max binding concentration	inhibition	0%
CCOC(=O)C1=C(C)NC2=C(C(=O)CC(C)(C)C2)C1c1ccc(-c2ccccc2)cc1 (stereo not drawn)	HEK293T (HA-TGFBR2-mCherry)	cell-surface receptor level, degrader, flow cytometry			IC50	1.05 µM
B4 (α-TTP F165A)		binding, dual polarization interferometry	immobilized phospholipid bilayer	20 °C	Kd	2.11 ± 0.61 µM
O=c1[nH]c(/C=C/c2ccc(Cl)cc2)c([N+](=O)[O-])c(=O)[nH]1	ribH	enzyme activity, inhibitor		pH 7.0	Ki	45 ± 13 µM
CCCC[C@H](NC(=O)[C@H](C)NC(=O)[C@H](Cc1ccc(O)cc1)NC(=O)[C@H](CO)NC(C)=O)C(=O)N[C@@H](CCC(=O)O)C(=O)N[C@@H](Cc1c[nH]cn1)C(=O)N[C@H](Cc1ccccc1)C(=O)N[C@@H](CCCNC(=N)N)C(=O)N[C@@H](Cc1c[nH]c2ccccc12)C(=O)NCC(=O)N[C@@H](CCCCN)C(=O)N1CCC[C@H]1C(=O)N[C@H](C(N)=O)C(C)C	Melanocortin receptor 4 (Mus musculus, UniProt P56450)				EC50	0.00027 ± 1e-05 µM
YFCHQYL			peptide, human polyclonal IgM RF SOR	concentration not given, 5 µg/mL mAb II-481 coated, added: RF at 50% max binding concentration	inhibition	0%
B5 (α-TTP M209D)		binding, dual polarization interferometry	immobilized phospholipid bilayer	20 °C	Kd	0.488 µM
CC(C)[C@@H](CN1CCC(c2ccsc2)CC1)NC(=O)[C@H]1Cc2ccc(O)cc2CN1	OPRD1 (Homo sapiens, UniProt P41143)	antagonist		added: DPDPE	Kb	0.118 ± 0.027 µM
